# Measurements from different studies.
# Numbered parts are unrelated; each lists some results of a single study.

# Block 1 — technique: aptamer microarray, sandwich; form: DNA with 2'F-ANA; sample: in vitro; concentration: 200 nM; together with: Cy3 exosite-II aptamer, 400 nM; reading: higher = stronger binding; strand: GGTTGGTGTGGTTGG
# Target: Prothrombin, mature alpha-thrombin (F2, Homo sapiens, UniProt P00734)
# Notes: whole 15-mer aptamer, many near background
Modification,mean fluorescence intensity [a.u.]
2'F-ANA at 1 2 3 6 9 10 11 12 14 15,87.2
2'F-ANA at 2 4 5 7 9 10 11 12 15,51
2'F-ANA at 2 3 5 6 8 9 10 11 12 13,54.9
2'F-ANA at 1 2 3 5 11 13 14,47.9
2'F-ANA at 1 2 3 4 5 6 7 9 10 15,54.3
2'F-ANA at 1 2 5 6 8 9 11 12 14,51

# Block 2 — technique: universal PBM; form: double-stranded DNA, one strand shown; sample: in vitro; concentration: not given; reading: higher = stronger binding
# Target: Sal-like protein 4, full length isoform B (SALL4, Homo sapiens, UniProt Q9UJQ4-2, residues 1-616)
# Notes: 8-mer, flanks averaged, mean of replicates
Strand,E-score
CATCCCGG,-0.26
AATCGAGA,0.131
TCCCTGAA,-0.00342
ATAAAGAC,0.233
CAGCGCCC,-0.31
CAAGAGTA,0.0499
GTGGCAAC,-0.198

# Block 3 — technique: protein-binding microarray; form: double-stranded DNA, one strand shown; sample: in vitro; concentration: not given; reading: higher = stronger binding
# Target: Transcriptional repressor CTCF (CTCF, Homo sapiens, UniProt P49711, residues 1-727, full length assumed)
# Notes: k-mer, scored over probes, only values ≥0.25
# Residues (chain): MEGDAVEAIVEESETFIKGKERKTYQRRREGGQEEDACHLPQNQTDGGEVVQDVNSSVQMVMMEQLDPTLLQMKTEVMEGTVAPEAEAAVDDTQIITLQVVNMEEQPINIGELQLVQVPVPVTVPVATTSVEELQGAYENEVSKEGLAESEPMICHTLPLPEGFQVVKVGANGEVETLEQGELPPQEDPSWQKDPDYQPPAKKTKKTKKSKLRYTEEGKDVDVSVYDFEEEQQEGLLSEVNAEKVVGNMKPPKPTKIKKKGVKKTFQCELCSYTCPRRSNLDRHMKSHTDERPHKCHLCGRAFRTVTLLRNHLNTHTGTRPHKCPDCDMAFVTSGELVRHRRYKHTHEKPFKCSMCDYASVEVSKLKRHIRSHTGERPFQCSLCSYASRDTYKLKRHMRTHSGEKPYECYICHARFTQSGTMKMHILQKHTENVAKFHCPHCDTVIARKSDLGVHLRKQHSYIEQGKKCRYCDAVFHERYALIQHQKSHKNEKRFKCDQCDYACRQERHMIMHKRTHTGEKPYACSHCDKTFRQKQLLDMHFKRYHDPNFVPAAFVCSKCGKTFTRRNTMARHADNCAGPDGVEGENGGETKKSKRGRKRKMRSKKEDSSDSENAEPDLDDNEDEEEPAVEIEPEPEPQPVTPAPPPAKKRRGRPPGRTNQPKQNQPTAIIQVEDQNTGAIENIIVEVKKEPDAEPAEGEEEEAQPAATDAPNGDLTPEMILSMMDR
Strand,E-score
ATAGATTA,0.36
GCGCGTCA,0.3
GCTTTTTA,0.335
ATCAATTG,0.277
AATTATAT,0.251
AAATGGTA,0.317
AGTATCTA,0.284

# Single results of other studies
Substance,target,assay,system,setting,how to read,endpoint,value
"PhoQ, residues 284 288 289 292 302 303 GASLAW","PhoP, residues 12 14 15 18 19 GQALL (Escherichia coli, UniProt P23836)","Sort-seq, refers to: YFP reporter",E. coli,"PhoQ-PhoP variant library, together with: 10 µM Mg2+","reference: high Mg2+ state, higher = stronger signaling",fold induction,7.53

# Excerpt of the above (block 3):
Strand,E-score
GCTTTTTA,0.335
GCGCGTCA,0.3
